# Results of several laboratories.
# Every numbered part comes from another study and shows a few of its results, in no order.
# Sequence of UniProt P78362 (whole entry, looked up): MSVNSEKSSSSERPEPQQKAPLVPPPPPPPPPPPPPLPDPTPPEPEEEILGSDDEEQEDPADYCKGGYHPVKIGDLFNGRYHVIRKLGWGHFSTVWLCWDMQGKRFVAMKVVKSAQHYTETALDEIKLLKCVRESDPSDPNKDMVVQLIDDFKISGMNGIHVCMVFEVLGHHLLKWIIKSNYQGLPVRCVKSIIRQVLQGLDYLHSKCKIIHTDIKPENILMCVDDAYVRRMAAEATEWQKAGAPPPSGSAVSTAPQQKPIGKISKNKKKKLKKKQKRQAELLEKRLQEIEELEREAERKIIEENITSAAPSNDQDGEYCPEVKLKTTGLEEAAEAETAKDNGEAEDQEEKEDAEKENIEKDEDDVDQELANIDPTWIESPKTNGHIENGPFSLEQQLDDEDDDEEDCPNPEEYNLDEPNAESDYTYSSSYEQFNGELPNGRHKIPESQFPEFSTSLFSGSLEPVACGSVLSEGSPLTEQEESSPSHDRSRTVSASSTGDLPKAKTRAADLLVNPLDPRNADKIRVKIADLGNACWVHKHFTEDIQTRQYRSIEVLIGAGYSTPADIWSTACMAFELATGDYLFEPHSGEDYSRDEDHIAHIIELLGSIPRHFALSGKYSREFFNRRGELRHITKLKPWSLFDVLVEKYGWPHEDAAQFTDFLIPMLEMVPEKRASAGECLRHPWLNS
# Sequence of UniProt Q9H4A3 (whole entry, looked up): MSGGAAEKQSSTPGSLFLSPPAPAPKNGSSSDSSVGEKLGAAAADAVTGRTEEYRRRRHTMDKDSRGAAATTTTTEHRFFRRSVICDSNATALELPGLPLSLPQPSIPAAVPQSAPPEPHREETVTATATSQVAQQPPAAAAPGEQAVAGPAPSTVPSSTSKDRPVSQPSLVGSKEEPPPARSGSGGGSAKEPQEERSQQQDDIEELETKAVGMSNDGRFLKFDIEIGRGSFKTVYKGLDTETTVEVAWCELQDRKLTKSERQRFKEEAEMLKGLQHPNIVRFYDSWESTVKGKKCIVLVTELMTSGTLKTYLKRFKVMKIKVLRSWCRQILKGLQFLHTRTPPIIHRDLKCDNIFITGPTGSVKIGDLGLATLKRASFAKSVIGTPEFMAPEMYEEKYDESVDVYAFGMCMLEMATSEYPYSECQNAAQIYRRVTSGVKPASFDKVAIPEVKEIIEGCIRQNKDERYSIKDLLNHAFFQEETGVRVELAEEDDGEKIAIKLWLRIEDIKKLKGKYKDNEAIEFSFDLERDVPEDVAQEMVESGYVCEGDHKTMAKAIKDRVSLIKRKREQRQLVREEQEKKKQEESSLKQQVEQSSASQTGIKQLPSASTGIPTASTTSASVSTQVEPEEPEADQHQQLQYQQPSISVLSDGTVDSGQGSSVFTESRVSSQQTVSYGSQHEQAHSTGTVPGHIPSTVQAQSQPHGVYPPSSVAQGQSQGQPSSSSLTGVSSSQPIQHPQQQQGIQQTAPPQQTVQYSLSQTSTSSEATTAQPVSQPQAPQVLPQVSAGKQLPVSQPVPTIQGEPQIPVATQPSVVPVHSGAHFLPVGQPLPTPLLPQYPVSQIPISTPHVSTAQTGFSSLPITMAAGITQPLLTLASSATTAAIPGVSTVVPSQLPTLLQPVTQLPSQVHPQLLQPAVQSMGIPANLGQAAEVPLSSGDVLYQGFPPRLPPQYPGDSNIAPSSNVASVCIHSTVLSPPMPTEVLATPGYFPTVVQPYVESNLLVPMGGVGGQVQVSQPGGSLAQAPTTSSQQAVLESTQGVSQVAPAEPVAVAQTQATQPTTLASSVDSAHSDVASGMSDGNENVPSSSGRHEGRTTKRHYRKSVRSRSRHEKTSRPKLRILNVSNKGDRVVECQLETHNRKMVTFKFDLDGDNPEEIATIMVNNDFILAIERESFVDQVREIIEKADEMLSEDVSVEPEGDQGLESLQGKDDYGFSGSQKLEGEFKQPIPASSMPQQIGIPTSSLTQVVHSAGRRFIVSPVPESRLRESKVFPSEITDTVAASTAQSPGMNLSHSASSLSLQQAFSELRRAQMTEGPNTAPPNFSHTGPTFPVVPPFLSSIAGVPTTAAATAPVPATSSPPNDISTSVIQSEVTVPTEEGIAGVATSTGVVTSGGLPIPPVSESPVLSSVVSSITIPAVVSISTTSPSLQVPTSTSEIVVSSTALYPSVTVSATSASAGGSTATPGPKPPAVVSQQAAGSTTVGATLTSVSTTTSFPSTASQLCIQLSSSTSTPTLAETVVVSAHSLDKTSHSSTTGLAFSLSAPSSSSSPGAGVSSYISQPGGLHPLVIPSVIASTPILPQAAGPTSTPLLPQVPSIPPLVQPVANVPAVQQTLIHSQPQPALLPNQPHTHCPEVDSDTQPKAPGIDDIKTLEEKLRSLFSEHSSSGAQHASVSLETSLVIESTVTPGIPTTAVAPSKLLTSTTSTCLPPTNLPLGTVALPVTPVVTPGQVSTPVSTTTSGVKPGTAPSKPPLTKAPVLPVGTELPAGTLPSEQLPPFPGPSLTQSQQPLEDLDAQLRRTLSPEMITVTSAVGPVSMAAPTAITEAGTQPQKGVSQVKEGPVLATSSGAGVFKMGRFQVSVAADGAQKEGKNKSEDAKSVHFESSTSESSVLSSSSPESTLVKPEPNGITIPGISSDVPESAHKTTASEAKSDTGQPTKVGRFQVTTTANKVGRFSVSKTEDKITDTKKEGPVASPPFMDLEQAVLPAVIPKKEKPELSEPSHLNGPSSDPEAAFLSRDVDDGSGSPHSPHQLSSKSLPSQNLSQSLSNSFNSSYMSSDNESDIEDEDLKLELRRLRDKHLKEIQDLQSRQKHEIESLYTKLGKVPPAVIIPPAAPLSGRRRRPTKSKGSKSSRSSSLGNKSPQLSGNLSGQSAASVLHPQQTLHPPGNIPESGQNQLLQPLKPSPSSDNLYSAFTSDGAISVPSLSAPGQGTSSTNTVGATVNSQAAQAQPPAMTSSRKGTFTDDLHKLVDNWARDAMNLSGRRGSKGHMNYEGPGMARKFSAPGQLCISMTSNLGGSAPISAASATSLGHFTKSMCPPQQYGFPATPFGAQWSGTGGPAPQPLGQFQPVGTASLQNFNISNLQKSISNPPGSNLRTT
# Sequence of UniProt Q6P3R8 (whole entry, looked up): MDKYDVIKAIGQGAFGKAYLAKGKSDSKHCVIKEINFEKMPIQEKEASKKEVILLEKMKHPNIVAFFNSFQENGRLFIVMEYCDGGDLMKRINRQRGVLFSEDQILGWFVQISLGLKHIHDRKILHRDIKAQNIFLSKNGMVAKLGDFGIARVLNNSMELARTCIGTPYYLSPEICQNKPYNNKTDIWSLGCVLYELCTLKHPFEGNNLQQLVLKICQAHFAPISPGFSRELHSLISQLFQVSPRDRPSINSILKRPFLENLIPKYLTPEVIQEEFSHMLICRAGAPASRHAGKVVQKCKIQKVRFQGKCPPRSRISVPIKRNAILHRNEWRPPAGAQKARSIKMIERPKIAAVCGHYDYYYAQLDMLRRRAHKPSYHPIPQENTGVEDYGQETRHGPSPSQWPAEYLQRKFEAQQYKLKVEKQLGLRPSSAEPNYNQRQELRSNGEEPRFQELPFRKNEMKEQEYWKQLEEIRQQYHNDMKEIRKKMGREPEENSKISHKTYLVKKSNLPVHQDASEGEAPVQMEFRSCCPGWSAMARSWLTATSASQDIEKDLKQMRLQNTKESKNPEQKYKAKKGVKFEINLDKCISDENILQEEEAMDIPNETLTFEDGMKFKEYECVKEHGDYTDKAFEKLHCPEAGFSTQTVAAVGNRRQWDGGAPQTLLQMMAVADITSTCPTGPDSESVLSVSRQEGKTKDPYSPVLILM
# Sequence of UniProt Q9HAZ1 (whole entry, looked up): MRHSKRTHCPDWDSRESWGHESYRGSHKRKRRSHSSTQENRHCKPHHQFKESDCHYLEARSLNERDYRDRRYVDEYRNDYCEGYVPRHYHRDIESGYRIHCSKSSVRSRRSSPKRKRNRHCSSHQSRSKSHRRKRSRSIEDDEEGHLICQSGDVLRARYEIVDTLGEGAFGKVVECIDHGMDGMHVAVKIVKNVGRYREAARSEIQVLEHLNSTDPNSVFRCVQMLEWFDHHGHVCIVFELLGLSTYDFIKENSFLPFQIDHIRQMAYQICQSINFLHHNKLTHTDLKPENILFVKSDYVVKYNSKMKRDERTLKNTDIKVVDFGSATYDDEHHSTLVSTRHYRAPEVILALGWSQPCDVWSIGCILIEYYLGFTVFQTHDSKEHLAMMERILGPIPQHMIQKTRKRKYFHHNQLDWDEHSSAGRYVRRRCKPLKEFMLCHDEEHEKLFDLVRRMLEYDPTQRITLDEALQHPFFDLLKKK

# Sample 1 — species: human; medium: microsomes or S9; tested at: 2 µM; time: 0.5 h
SMILES,remaining compound [%]
Fc1cc(F)cc(-c2cncc(COc3ccccc3)c2)c1,0.229
CN(C)c1ccc2c3c(ccc(N(C)C)c13)C(=O)OC2,70.7
CC(C)(C)c1cn2c3ccccc3nc2n1CCNC1CCCCC1,29.7
O=C(O)c1cc2ccc3oc(-c4ccccc4)nc3c2n1Cc1cccc(Cl)c1,58.3
O=C(c1c(OCC2CC2)cc(=O)n2c1CCCCC2)N1CCc2ccccc2C1,12.8
CCC1(C(=O)O)CCCN(C(=O)Cc2nc(C)n[nH]2)C1 (centres unmarked),> 99

# Sample 2 — cell line: A-375; tested at: 100 µM; time: 36 h
SMILES,viability [%]
CCn1cc(C(=O)O)c(=O)c2cnc(N3CCNCC3)nc21,129
O=C(O)CCCN1CCC(O[C@@H](c2ccc(Cl)cc2)c2ccccn2)CC1,103
CCN1CCN(C(=O)N[C@@H](C(=O)N[C@@H]2C(=O)N3C(C(=O)O)=C(CSc4nnnn4C)CS[C@H]23)c2ccc(O)cc2)C(=O)C1=O,113
CC(=O)Nc1ccccc1,134
CCOC(=O)[C@H](CCc1ccccc1)N[C@H]1CCc2ccccc2N(CC(=O)O)C1=O,98
CC(C)(S)C(N)C(=O)O (racemic),120
C=CCc1cc(OC)c(O)c(C(=O)NCCO)c1,105
COc1ccc(C[C@@H]2c3cc(OC)c(OC)cc3CC[N@+]2(C)CCC(=O)OCCCCCOC(=O)CC[N@@+]2(C)CCc3cc(OC)c(OC)cc3[C@H]2Cc2ccc(OC)c(OC)c2)cc1OC,43.4
CO/N=C1\C[C@]2(C[C@@H]3C[C@@H](C/C=C(\C)C[C@@H](C)/C=C/C=C4\CO[C@@H]5[C@H](O)C(C)=C[C@@H](C(=O)O3)[C@]45O)O2)O[C@H](/C(C)=C/C(C)C)[C@H]1C,3.05
O=C(O)c1ccc(-n2nc(-c3ccccc3O)nc2-c2ccccc2O)cc1,40
C1N2CN3CN1CN(C2)C3,116

# Sample 3 — effect on: enzyme activity; mode: inhibitor; tested at: 0.5 µM; relative to: control
# Target: Tyrosine-protein kinase Fes/Fps (FES, Homo sapiens, UniProt P07332)
# Sequence of UniProt P07332 (whole entry, looked up): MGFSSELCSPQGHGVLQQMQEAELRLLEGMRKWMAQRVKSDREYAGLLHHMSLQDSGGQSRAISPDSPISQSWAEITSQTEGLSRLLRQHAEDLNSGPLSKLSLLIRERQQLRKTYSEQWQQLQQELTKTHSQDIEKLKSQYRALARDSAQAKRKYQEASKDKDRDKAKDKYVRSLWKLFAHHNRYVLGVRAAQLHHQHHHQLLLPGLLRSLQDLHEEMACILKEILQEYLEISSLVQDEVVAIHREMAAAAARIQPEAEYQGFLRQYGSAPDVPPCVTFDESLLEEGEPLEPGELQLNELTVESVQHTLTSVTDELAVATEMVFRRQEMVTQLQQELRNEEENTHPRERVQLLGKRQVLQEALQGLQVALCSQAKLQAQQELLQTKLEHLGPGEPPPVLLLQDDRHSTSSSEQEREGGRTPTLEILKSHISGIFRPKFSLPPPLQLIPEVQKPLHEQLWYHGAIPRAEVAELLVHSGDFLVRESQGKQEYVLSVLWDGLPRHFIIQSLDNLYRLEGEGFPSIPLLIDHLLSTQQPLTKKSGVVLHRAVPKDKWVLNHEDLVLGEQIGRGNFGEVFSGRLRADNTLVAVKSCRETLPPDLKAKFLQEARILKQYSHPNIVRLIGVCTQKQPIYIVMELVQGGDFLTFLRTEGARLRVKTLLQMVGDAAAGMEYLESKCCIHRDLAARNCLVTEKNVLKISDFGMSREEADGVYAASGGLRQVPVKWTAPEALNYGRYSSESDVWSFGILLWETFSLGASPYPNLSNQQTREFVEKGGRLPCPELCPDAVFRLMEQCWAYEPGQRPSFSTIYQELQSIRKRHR
SMILES,remaining activity [%]
O=C1NC(=O)/C(=C/c2ccc3c(c2)OC(F)(F)O3)S1,98.3
c1cc(-c2cnn3cc(-c4ccc(OCCN5CCCCC5)cc4)cnc23)ccn1,76.8
O=C(c1ccccc1)c1ccc(N2CCOCC2)cc1O,95.2
Nc1nc(Nc2ccc(S(N)(=O)=O)cc2)nn1C(=S)Nc1c(F)cccc1F,10.2
O=C(O)/C=C/c1cc(Br)c(Br)c(Br)c1Br,88.8
C[C@@H](N)[C@H]1CC[C@H](C(=O)Nc2ccncc2)CC1,109
NC(=O)c1cccc(-c2cc(Nc3ccc(OC(F)(F)F)cc3)ncn2)c1,96.3
CC(C)(C)c1nc2c3cc[nH]c(=O)c3c3cc(F)ccc3c2[nH]1,78
N#C/C(=C(/N)SC1C=CC=CC1)c1cccc(C(O)c2ccncc2)c1 (centres unmarked),95.2
CCN(CC)CCCCN1c2ccccc2Oc2ccc(Cl)cc21,99.8
COc1cc2c(N3CCN(C(=O)Nc4ccc(OC(C)C)cc4)CC3)ncnc2cc1OCCCN1CCCCC1,105
CC(C)N(CCC(=O)c1ccc2ccccc2c1)Cc1ccccc1,92.7
O=Nc1c(-c2c(O)[nH]c3ccccc23)[nH]c2ccccc12,92.4
FC(F)(F)c1ccc(/C=C/c2nc(COc3ccc(CCCCn4ccnn4)cc3)co2)cc1,102

# Sample 4 — effect on: cell-free assay; method: competition with immobilised ligand; tested at: 1 µM
# Structure (SMILES): COc1ccc2c(c1)O[C@H](c1ccc(OC)c(OC)c1)C[C@@H]2NC(=O)C1(c2ccc3c(c2)OC(F)(F)O3)CC1
target,remaining binding [%]
"MET (Homo sapiens, UniProt P08581, M1250T)",89
"WNK4 (Homo sapiens, UniProt Q96J92)",83
"NEK5 (Homo sapiens, UniProt Q6P3R8)",100
"GSK3A (Homo sapiens, UniProt P49840)",100
"CDC42BPA (Homo sapiens, UniProt Q5VT25)",100
"Ribosomal protein S6 kinase alpha-2, N-terminal kinase domain (RPS6KA2, Homo sapiens, UniProt Q15349)",100
"CASK (Homo sapiens, UniProt O14936)",85
"NEK9 (Homo sapiens, UniProt Q8TD19)",100
"CILK1 (Homo sapiens, UniProt Q9UPZ9)",80
"WNK1 (Homo sapiens, UniProt Q9H4A3)",100
"EPHB1 (Homo sapiens, UniProt P54762)",100
"CDKL5 (Homo sapiens, UniProt O76039)",100
"RIOK1 (Homo sapiens, UniProt Q9BRS2)",100
"SRPK2 (Homo sapiens, UniProt P78362)",100
"CLK4 (Homo sapiens, UniProt Q9HAZ1)",92
"MET (Homo sapiens, UniProt P08581, Y1235D)",100
